Results from different studies.
Numbered parts are unrelated; each lists some results of a single study. Substitutions count along the parent as printed.

Sample 1 — target: CCND1, cyclin fold, Cln2 fusion (human); technique: yeast growth competition, sequencing; sample: yeast; notes: weak parent motif; reference: not given; direction: higher = stronger binding
Starting sequence: CDKN1B docking peptide (human); PSACRNLFGPVDH
Change	normalised enrichment score
C4S	0.429
R5D	0.296
S2V	0.623
P1D	0.343
H13F	1.18
S2G	0.095
V11N	0.915
V11L	0.636
P1K	1.04
V11H	1.08

Sample 2 — technique: RNA Bind-n-Seq; molecule type: RNA; sample: in vitro; tested at: 200 nM; notes: whole 134-nt RNA, ends assumed; added: 150 mM LiCl; reference: input library; direction: higher = stronger binding; each molecule: 7-deaza-guanosine replaces G
Target: Fragile X messenger ribonucleoprotein 1, C-terminal low-complexity region (Fmr1, Mus musculus, UniProt P35922)
Strand	log2 enrichment
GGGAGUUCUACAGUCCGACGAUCCAAGUCCUGUGCUACACAUCGUAUGUACCGAAUCGGGGUUGGGUUGGGGUUGGGGAAAGUAUUAUGUUACGCCGUUCGGAUCUGCACUUCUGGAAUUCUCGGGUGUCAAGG	0.0458
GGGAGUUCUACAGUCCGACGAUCUCCUGUGCUACACAUCGUAUGUACCGAAUCAAACCCCCAAACCCCCCCAAACCCCCAAAAAAGUAUUAUGUUACGCCGUUCGGAUCUGCAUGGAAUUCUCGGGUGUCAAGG	0.638
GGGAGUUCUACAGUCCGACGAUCUUACAUUACCUGGUGAAAUAGACAUUGACAGUAUCUCCUAUGAAGAGCUUUCACCACCUGAUGAAGAGCCUGCCAAGAAUAAAAAGGAAAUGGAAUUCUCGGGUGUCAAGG	-2.03
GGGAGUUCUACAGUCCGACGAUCUGUGCUACACAUCGUAUGUACCGAAUCGGGGUUUUUUUGGGGUUUUUUUGGGGUUUUUGGGGAAAGUAUUAUGUUACGCCGUUCGGAUCUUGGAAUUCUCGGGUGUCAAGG	1.95
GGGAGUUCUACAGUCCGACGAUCCAAGUCCUGUGCUACACAUCGUAUGUACCGAAUCAAACCCAAACCCAAAUUUAAAAAAGUAUUAUGUUACGCCGUUCGGAUCUGCACUUCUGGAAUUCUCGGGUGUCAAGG	0.943

Sample 3 — technique: protein-binding microarray; molecule type: double-stranded DNA, one strand shown; sample: in vitro; tested at: not given; direction: higher = stronger binding
Target: Protein C-ets-1 (ETS1, Homo sapiens, UniProt P14921, residues 1-441, Y397A, full length assumed)
Notes: k-mer, scored over probes, only values ≥0.25
Construct (chain): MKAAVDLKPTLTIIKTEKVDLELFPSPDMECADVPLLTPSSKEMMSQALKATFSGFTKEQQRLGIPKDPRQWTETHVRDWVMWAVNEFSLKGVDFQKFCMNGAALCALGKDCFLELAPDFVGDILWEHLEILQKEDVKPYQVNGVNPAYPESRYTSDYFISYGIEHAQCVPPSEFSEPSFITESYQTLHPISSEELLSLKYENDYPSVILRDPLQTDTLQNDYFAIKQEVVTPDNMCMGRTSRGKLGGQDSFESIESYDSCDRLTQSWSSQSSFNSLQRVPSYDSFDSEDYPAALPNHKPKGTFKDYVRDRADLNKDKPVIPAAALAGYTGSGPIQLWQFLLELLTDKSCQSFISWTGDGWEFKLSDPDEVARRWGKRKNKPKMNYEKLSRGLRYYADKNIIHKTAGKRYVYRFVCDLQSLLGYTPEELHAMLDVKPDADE
Strand	E-score
GGAAGTCA	0.272
CCCAACAA	0.302
ACCGGCAC	0.27
ACCGCAAC	0.266
GGGACAAA	0.251
ACTTCCGC	0.482
GTGCCAAC	0.274
ATTTGACA	0.293
CAAATACA	0.299
CCGCGCGG	0.351

Sample 4 — technique: protein binding microarray; molecule type: double-stranded DNA, one strand shown; sample: in vitro; tested at: not given; reference: not given; direction: higher = stronger binding
Target: Histone acetyltransferase KAT6A, winged helix 1, GST fusion (KAT6A, Homo sapiens, UniProt Q92794, residues 1-85)
Notes: 8-mer, flanks averaged, mean of 2 arrays, mostly near background
Target sequence (chain): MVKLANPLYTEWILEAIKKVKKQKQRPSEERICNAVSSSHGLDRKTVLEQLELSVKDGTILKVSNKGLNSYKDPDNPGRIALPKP
Strand	E-score
AGTCCCGC	0.265
CCAAAATA	-0.212
ATGTCAGC	-0.0266
ACCAAAAG	-0.161
ACGCGAAT	0.128
CCTCCGCG	0.368
AGATTCCC	0.108
CGCGCGGA	0.451
TAGCCTCA	-0.229
AAGGTATC	-0.166
AAGTGTCT	-0.205
ATCAGGAG	-0.163
AATAATGG	0.0109
ACCCTAAC	-0.204
GCACGCGA	0.19
AAGATAAC	-0.0431

Sample 5 — technique: universal PBM; molecule type: double-stranded DNA, one strand shown; sample: in vitro; tested at: not given; direction: higher = stronger binding
Target: Sal-like protein 4, full length isoform B (SALL4, Homo sapiens, UniProt Q9UJQ4-2, residues 1-616)
Notes: 8-mer, flanks averaged, mean of replicates
Strand	E-score
CAACGACG	-0.159
AGCTGCGG	-0.351
CATAACAG	0.183
AGAAGATG	0.139
CCACATCG	-0.166
AGGGGACC	-0.337
CACGCTGA	-0.0641
CAGGTCCG	-0.312
CTTCTTAA	0.186
AAAGTAGC	-0.00133
ACACTAAT	0.177
TCCTCAAA	0.14

Sample 6 — technique: RNA Bind-n-Seq; molecule type: RNA; sample: in vitro; tested at: 365 nM; reference: no-protein control; direction: higher = stronger binding
Target: RNA binding protein fox-1 homolog 2, RRM domain, GST-SBP tag (RBFOX2, Homo sapiens, UniProt O43251-10, residues 100-194)
Notes: natural RNA segment, single round, ends assumed
Construct (chain): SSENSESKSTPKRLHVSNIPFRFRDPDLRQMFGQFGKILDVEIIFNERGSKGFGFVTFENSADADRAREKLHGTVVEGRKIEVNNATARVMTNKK
Strand	RBNS enrichment (R)
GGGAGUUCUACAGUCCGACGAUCACAUUGCUAAAAGGACAUUUUGUGUAGGGUCAAGUUAUUUUUAUAUGAGUUAAUGUGAAGUUGUAAAUGGGAAUCUAUAGCAAUGAUGUCUGUAUAAAUCUGUCUUAUCUUGGAAUUCUCGGGUGCCAA	0.595
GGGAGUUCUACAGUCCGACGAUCAAAAUGUGUUUGAGCUUUAGACUAUAACAUUUGUUGUAAUAAUUGCUAGGUUGAAGUUCACCAUGUUUAAAAAAAAUGGGGGGCAUGGAUUUACAUUACAAAGGCGUCCAUGGAAUUCUCGGGUGCCAA	0.593
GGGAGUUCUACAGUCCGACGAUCAGGGUCGCUUCUGUCCUGUUGCAAUCAUGUCCAAGUUUGUUUUUAGUGUGGACUUUUGUGGGCACUGUCUGUCAUUGGCCACCCAGUCACGUACCGAGUGGGCAGUGUCAUGGAAUUCUCGGGUGCCAA	0.611
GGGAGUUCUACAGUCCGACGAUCCAUAAAGGGGCUACCUUGAGAGAAAAUACAAACGCUCUCCUGUUGAUGAUUUGUGCAUUUUAAAAAAUGAGUUUCUUUCCCUCUUAGCACCCCUCCUUCCUGUCUGGUUAUGGAAUUCUCGGGUGCCAA	0.43
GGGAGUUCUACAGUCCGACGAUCCAAGUCUCACACUAAACAUGCCCGGGCUUCGAUGUGCCUGGAGGAUUUCCCCACAGGGACCCACGCACCUCCCUGUAUCUGCGCAGCUUGCUCGUGUGGCUGGAAGCGCUUGGAAUUCUCGGGUGCCAA	0.225
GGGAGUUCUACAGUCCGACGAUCCAGCUAUGCUUCCAAUUUUGCACAUCUUCCUUUAAAAACAGGCAACAAAACAAAACCUGAGAAAAUGCAAAACUGGAACUUUUUGCAAUAUUCUGAAAGAUAAUCUUCCUUGGAAUUCUCGGGUGCCAA	0.904
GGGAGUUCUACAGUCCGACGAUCCUUACUUUCAUUGUAAAUAAGCCUGUCUUCCUAUCUGGAUUUUUUGUGUGCAUACAUAUUCUACUGAUUAACUACUUUUGCAGUUUUAAUCCUGUAUUAUUUCUUCUACUUGGAAUUCUCGGGUGCCAA	0.801
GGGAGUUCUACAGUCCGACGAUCGUAAUGAGAAGUCUUACGUACAACAUAGCUGUGGUGGCUUAAUGGCUGCAUUAGAUAGGAUCCUCACAUCCCAUUCAGAACCAAAACUGAUACAGUGAAACAAUUAAGGUUGGAAUUCUCGGGUGCCAA	0.378
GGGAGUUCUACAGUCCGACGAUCUUGCUUUAAACUGUGAUACUUUGAUUUGCUAGAUUGACAAAACUGAUACUAAUAUAAUUAAGUUCAUCUUUGAAAUACAUCUUUGUGCGUAGAGCCAAAAAAAGAGAUAAUGGAAUUCUCGGGUGCCAA	0.451

Sample 7 — technique: protein-binding microarray; molecule type: double-stranded DNA, one strand shown; sample: in vitro; tested at: 250 nM; notes: 60-bp whole probe; added: salmon DNA 0.4 mg/ml; reference: random background probes; direction: higher = stronger binding; constant ends, left off below: GCCTAGCAC … GTCTTGATTCGCTTGACGCTGCTG
Target: Interferon regulatory factor 7, full length, phosphomimetic (IRF7, Homo sapiens, UniProt Q92985, residues 1-503, S101K/S471D/S472D/S475D/S476D/S477D/S483D/S484D/S487D)
Sequence of UniProt Q92985 (whole entry, unmodified, looked up): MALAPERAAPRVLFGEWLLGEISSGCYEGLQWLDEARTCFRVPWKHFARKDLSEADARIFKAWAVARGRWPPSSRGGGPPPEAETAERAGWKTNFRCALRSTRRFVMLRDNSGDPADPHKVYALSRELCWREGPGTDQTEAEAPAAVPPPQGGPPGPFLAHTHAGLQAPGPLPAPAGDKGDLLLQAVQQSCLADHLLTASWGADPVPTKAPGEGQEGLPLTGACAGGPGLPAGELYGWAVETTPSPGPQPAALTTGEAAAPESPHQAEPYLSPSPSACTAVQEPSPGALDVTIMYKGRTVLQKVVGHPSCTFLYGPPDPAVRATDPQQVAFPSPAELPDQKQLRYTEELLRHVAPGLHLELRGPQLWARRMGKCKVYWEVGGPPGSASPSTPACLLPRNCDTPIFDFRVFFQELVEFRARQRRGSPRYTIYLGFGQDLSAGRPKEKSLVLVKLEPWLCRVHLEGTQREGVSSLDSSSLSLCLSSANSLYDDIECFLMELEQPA
Strand	log fluorescence
GACGGACTGGTTTTCGGGACGTGCTAG	0.361 z-score
CCCTGTTTCTACTGTCTGTTTGTGCTA	1.63 z-score
GACGGGCTGGGGTATCGGGACGTGCTA	-0.76 z-score
GTAGAACTGAGTTTCGATTAGTGCTAG	7.53 z-score
GACGAACTGAGACTGCAGACGTGCTAG	-0.152 z-score
TACAGCAGGGAGGGAGGCACGTGCTAG	-0.873 z-score
TTAGGTATCGGGTTTCGGGTAGTGCTA	4.6 z-score
CCTGGCTTCATGTTGCTCTCCGTGCTA	-0.655 z-score
TACGAACTGGGGTATCGAGACGTGCTA	-0.075 z-score
GACGGTCTCGGACTGGTGACGTGCTAG	-0.227 z-score
TCAGATTTCAGTATCGATTAGTGCTAG	1.52 z-score
GATGGTCTCGGTATCGGGACGTGCTAG	2.23 z-score
TTAGGTCTGGGGACTGGGTTAGTGCTA	-0.387 z-score

Sample 8 — technique: DHFR PCA, deep sequencing; sample: yeast; added: (+)-ABA 58 µM; reference: wild-type fitted maximum; direction: higher = stronger binding
Target: ABI1, truncated, D143A, DHFR fusion (Arabidopsis thaliana)
Notes: methotrexate growth selection, single substitutions
Starting sequence: PYL1, truncated, DHFR fusion (Arabidopsis thaliana); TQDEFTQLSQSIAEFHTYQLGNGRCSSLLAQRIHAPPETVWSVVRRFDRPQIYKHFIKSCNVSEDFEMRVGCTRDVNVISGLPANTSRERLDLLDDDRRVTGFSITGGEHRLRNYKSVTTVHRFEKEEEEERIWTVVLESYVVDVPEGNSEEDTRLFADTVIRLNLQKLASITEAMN; partner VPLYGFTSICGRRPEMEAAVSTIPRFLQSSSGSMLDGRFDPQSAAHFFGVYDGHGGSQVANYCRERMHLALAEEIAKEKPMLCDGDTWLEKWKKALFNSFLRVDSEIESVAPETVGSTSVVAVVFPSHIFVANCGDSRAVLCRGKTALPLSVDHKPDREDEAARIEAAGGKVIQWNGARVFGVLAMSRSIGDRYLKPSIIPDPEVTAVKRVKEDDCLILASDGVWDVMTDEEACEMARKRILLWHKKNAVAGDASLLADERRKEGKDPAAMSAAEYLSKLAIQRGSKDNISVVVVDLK
Change	relative binding score [%]
L156A	82.8
S104P	-8.07
V161S	5.4
V145S	32.8
T73D	48.5
T135R	-10.4
E131F	87
T160A	60.4
D3T	82.7
Q2D	83.2

Further values, each from its own experiment
Substance	partner	technique	sample	added	quantity	result
PDIA3 (Homo sapiens, UniProt P30101)	SRRM2 (Homo sapiens, UniProt Q9UQ35)	cross-linking MS	cell fractions	DSSO	cross-linked residues	K274 to S1502
